# Assay results pooled from the literature.
# Every numbered part comes from another study and shows a few of its results, in no order.
# UniProt O15075, sequence (whole entry, looked up): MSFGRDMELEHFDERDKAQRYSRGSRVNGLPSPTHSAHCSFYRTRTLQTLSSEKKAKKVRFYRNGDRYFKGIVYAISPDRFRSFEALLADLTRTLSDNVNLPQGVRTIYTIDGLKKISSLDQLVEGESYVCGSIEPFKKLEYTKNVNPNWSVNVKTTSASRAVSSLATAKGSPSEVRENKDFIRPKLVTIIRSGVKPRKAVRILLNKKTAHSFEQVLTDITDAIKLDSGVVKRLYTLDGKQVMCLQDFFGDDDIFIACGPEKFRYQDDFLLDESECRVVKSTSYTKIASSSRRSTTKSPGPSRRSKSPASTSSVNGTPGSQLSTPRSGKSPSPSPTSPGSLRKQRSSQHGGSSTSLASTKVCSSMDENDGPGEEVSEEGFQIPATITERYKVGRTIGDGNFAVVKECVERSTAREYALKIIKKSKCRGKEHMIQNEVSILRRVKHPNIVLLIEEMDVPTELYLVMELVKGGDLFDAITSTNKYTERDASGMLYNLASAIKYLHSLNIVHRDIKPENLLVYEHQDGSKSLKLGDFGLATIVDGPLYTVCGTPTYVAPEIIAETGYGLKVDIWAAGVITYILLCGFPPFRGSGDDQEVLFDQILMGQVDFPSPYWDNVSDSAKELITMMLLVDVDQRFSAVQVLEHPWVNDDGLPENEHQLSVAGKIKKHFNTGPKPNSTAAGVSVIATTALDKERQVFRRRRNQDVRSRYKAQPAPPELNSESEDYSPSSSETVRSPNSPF
# UniProt P00519, sequence (whole entry, unmodified, looked up): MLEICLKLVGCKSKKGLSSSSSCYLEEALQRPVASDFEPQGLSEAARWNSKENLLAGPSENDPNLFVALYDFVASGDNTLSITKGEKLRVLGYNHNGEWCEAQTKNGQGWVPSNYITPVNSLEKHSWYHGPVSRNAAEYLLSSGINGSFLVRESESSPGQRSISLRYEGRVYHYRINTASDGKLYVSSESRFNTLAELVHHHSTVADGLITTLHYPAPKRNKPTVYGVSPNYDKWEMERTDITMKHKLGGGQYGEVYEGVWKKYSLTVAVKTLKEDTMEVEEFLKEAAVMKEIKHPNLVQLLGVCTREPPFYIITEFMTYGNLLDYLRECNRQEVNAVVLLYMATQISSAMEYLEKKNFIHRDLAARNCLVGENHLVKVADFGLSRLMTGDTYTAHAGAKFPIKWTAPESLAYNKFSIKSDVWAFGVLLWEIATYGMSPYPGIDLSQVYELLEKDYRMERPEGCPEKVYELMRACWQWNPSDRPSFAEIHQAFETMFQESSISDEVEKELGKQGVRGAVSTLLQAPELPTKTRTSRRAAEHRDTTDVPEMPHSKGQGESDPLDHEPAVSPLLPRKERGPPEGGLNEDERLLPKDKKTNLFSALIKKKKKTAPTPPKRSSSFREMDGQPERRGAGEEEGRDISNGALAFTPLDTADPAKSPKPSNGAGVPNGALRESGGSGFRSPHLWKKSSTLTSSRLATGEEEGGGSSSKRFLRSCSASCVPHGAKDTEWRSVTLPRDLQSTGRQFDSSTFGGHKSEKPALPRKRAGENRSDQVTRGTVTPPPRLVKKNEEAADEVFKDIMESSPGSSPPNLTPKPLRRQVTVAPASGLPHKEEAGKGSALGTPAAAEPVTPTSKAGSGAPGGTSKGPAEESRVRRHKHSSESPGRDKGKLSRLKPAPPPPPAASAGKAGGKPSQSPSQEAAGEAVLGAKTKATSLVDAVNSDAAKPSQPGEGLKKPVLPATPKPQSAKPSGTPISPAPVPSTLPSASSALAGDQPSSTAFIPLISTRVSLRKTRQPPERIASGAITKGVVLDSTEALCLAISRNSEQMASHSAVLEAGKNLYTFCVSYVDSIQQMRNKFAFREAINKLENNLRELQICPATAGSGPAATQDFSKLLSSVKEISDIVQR
# UniProt Q9UM73, sequence (whole entry, unmodified, looked up): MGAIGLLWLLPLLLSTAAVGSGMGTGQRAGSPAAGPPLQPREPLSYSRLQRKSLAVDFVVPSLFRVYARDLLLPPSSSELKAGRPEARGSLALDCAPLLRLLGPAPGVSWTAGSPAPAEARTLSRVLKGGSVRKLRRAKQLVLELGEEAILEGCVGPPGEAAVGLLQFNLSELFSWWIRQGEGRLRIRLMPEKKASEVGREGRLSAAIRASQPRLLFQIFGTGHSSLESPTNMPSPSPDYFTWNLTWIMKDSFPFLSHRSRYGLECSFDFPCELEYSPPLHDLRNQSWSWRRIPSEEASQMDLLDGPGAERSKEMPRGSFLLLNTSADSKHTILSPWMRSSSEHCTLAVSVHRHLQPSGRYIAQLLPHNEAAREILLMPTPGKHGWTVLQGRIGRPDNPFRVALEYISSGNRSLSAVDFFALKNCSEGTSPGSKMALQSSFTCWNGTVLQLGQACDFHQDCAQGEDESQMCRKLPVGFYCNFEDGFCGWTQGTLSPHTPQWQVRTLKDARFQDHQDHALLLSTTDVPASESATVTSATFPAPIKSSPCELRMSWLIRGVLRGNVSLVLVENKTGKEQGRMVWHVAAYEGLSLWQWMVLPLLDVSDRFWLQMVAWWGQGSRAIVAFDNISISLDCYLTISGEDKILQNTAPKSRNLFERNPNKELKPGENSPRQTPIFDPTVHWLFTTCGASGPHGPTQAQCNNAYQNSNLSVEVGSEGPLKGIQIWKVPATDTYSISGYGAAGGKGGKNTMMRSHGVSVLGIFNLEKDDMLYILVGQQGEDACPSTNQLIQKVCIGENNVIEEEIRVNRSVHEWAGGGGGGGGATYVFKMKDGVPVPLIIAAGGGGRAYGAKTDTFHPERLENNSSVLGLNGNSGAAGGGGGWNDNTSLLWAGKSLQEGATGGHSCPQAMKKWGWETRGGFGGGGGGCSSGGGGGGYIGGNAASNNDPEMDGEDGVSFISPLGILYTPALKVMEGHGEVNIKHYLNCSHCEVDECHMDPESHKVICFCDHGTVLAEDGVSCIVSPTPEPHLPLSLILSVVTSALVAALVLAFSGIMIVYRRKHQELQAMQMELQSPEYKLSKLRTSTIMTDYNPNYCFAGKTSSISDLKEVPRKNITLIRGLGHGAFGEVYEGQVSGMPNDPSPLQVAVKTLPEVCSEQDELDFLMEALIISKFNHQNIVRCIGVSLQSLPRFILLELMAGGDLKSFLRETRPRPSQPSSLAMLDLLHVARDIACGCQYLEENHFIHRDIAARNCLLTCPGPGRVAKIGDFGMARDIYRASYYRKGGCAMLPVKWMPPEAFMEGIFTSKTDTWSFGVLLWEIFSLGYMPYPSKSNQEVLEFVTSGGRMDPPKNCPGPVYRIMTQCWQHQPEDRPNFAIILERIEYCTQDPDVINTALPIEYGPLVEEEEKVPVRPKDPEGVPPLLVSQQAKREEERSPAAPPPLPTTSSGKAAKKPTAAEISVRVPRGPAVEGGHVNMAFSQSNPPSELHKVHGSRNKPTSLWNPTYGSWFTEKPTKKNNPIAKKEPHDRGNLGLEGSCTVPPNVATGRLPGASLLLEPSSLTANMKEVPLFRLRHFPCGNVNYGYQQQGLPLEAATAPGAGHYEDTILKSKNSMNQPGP
# UniProt Q92630, sequence (whole entry, looked up): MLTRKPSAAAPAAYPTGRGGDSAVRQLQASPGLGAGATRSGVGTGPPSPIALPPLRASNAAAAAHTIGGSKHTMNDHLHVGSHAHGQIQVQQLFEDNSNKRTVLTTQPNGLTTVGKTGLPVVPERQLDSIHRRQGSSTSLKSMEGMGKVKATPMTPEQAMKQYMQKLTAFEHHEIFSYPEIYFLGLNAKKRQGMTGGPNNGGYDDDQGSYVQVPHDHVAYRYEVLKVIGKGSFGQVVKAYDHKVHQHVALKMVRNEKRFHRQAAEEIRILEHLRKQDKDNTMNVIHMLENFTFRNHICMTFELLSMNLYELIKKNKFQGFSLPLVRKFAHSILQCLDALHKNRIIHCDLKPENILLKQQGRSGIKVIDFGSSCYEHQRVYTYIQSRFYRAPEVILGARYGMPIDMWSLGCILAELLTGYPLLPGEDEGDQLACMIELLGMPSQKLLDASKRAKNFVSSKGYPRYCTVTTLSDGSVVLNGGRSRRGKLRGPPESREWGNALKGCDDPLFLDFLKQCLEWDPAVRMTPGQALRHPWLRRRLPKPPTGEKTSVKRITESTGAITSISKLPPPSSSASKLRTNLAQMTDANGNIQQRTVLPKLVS

# Sample 1
# Compound: O=C(NC[C@@H]1[C@H]2CN(C(=O)OCc3cc(C(F)(F)F)cc(C(F)(F)F)c3)C[C@@H]12)c1ccc2[nH]nnc2c1
# Method: competition with immobilised ligand
# Concentration: 1 µM
target,read-out,remaining binding
"Serine/threonine-protein kinase DCLK1 (DCLK1, Homo sapiens, UniProt O15075)",cell-free assay,94%
"Dual specificity tyrosine-phosphorylation-regulated kinase 2 (DYRK2, Homo sapiens, UniProt Q92630)",cell-free assay,77%
"ALK tyrosine kinase receptor (ALK, Homo sapiens, UniProt Q9UM73, L1196M)",cell-free assay,100%
"Cyclin-dependent kinase-like 3 (CDKL3, Homo sapiens, UniProt Q8IVW4)",cell-free assay,87%
"STE20-like serine/threonine-protein kinase (SLK, Homo sapiens, UniProt Q9H2G2)",cell-free assay,100%
"Tyrosine-protein kinase ABL1, non-phosphorylated (ABL1, Homo sapiens, UniProt P00519, F317I)",binding,89%

# Sample 2
# Target: High affinity nerve growth factor receptor (NTRK1, Homo sapiens, UniProt P04629)
# UniProt P04629, sequence (whole entry, looked up): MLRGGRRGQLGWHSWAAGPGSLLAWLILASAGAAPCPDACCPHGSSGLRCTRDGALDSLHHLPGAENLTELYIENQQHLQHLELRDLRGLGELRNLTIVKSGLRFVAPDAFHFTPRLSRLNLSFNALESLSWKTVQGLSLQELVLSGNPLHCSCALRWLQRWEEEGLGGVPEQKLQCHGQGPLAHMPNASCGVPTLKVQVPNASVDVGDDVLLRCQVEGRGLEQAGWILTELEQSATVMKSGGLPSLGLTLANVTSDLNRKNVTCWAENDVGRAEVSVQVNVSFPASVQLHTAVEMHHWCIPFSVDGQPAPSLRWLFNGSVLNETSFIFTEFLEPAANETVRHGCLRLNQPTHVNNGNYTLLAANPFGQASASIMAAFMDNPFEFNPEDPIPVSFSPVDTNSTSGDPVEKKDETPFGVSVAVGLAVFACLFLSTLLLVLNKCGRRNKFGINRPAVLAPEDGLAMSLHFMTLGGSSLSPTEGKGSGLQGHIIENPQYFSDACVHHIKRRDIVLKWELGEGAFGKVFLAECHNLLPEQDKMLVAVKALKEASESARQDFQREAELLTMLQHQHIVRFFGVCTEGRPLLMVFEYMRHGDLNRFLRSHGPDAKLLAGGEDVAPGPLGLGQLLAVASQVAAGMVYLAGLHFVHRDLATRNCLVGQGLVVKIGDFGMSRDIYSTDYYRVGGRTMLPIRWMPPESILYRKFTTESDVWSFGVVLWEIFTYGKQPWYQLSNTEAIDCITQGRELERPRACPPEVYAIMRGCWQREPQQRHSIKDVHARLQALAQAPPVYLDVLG
# Read-out: enzyme activity
# Mode: inhibitor
# Concentration: 0.5 µM
# Relative to: control
SMILES,remaining activity
Cc1nc(-c2ccccc2)c(-c2ccncc2)o1,94.3%
O=C1NC(=O)C(c2cn(CCCO)c3ncccc23)=C1c1cnccn1,88.1%
CNC(=O)c1cc(Oc2ccc(NC(=O)Nc3ccc(Cl)c(C(F)(F)F)c3)cc2)ccn1,76.1%
CN(C)c1ccc(C=C2C(=O)Nc3ccccc32)cc1,96.6%
COc1cc2nccc(Oc3ccc(NC(=S)NC(=O)c4ccccc4C)cc3)c2cc1OC,82.5%
Oc1ccc(-c2nc(-c3ccncc3)c(-c3ccc(F)cc3)[nH]2)cc1,105%
CCOC(=O)c1c(C)[nH]c(/C=C2\C(=O)Nc3ccccc32)c1C,69.9%
COc1cc2ncnc(Nc3ccc(Oc4ccccc4)cc3)c2cc1OC,101%
Nc1ccc2ncnc(NCCc3ccc(Oc4ccccc4)cc3)c2c1,108%
O=c1c2ccccc2[nH]c(=S)n1CCN1CCC(=C(c2ccc(F)cc2)c2ccc(F)cc2)CC1,97%
O=C1NC(=O)C(c2cn(CCCn3ccnc3)c3ccccc23)=C1Nc1ccccc1,104%
O=S(=O)(c1cccc2cnccc12)N1CCCNCC1,89.6%
N#CC(C#N)=C(N)/C(C#N)=C/c1ccc(O)cc1,102%
NCCNc1ncc(C(N)=O)c(Nc2cccc(C(F)(F)F)c2)n1,84.2%
Cn1c2ccccc2c2c3c(c4c5ccccc5n(CCC#N)c4c21)CNC3=O,1.64%

# Sample 3
# Compound: CC(C)n1cnc(-c2ccc(F)cc2)c1-c1ncc(C(=O)Nc2ccc(N3CCN(C)CC3)cc2)[nH]1
# Method: Phase 2a trial
# Species: idiopathic pulmonary fibrosis patients
item,dose,setting,patients with adverse events [%]
gamma-glutamyltransferase increased,60 mg once daily,grade 5 maximum intensity,0
vision blurred,30 mg once daily,grade 2 maximum intensity,0
neutrophil count increased,30 mg once daily,grade 5 maximum intensity,0
neutrophil count increased,dose not given,"grade 3 maximum intensity, all arms",0

# Sample 4
# Cell line: HaCaT
# Concentration: 100 µM
# Time: 36 h
SMILES,viability [%]
COC(=O)N[C@H](C(=O)N1CCC[C@H]1c1nc(-c2ccc(-c3ccc(-c4c[nH]c([C@@H]5CCCN5C(=O)[C@@H](NC(=O)OC)C(C)C)n4)cc3)cc2)c[nH]1)C(C)C,11.9
CC1=C(C(=O)OC(C)C)C(c2cccc([N+](=O)[O-])c2)C(C(=O)OC2CN(C(c3ccccc3)c3ccccc3)C2)=C(N)N1 (stereo not shown),12.5
CC1(C)C(C=C(Cl)Cl)C1C(=O)OCc1cccc(Oc2ccccc2)c1 (stereo not shown),98
COc1ccc2cc1Oc1ccc(cc1)C[C@H]1c3cc(c(OC)cc3CCN1C)Oc1c(OC)c(OC)cc3c1[C@H](C2)N(C)CC3,6.16
O=C(NC[C@H]1CN(c2ccc(N3CCOCC3=O)cc2)C(=O)O1)c1ccc(Cl)s1,116
CN(C)CCN(Cc1ccc(Cl)cc1)c1ccccn1,59

# A few entries again (sample 1):
target,read-out,remaining binding
"Serine/threonine-protein kinase DCLK1 (DCLK1, Homo sapiens, UniProt O15075)",cell-free assay,94%
"Dual specificity tyrosine-phosphorylation-regulated kinase 2 (DYRK2, Homo sapiens, UniProt Q92630)",cell-free assay,77%
